Measurements gathered from unrelated publications.
Every numbered part comes from another study and shows a few of its results, in no order.

Block 1 — technique: RNAcompete; form: RNA; matrix: in vitro; concentration: 20 nM; setting: 7-mer, probes averaged, single round; relative to: mean of 7-mers; direction: higher = stronger binding
Target: PABPC1L2, full length, GST fusion (mouse, UniProt A0ABA7IW68)
Target sequence (chain): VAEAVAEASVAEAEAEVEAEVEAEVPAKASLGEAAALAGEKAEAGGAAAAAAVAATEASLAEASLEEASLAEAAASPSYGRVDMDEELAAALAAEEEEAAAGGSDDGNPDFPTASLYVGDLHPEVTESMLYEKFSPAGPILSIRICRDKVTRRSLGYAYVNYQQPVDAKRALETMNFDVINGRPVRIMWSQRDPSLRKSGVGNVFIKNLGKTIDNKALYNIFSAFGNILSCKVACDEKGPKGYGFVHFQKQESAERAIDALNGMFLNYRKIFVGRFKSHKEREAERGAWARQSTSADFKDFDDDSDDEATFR
| Oligonucleotide | 7-mer Z-score |
| --- | --- |
| CGCCGUC | -0.479 |
| AUGUUUA | -0.266 |
| AUCGCCC | -0.293 |
| GCGUGAC | -0.139 |
| UACUUCA | -0.215 |
| CUUUAGC | -0.144 |
| CAAAUGA | 0.215 |
| GAGUAGG | -0.0355 |

Block 2 — technique: protein binding microarray; form: double-stranded DNA, one strand shown; matrix: in vitro; concentration: not given; relative to: not given; direction: higher = stronger binding
Target: Histone acetyltransferase KAT6A, winged helix 2, GST fusion (KAT6A, Homo sapiens, UniProt Q92794, residues 85-181)
Setting: 8-mer, flanks averaged, mean of 2 arrays, mostly near background
Construct (chain): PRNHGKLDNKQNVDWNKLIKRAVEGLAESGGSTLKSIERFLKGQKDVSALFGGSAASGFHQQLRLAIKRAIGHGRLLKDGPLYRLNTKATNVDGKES
| Oligonucleotide | E-score |
| --- | --- |
| ACGGGTTG | -0.0526 |
| TAATCATA | 0.037 |
| CGTCGCTA | 0.0833 |
| CAATTTCC | -0.0372 |
| GATATCGA | 0.0678 |
| ATTATAGA | 0.00166 |
| AATCAAGT | -0.0233 |
| GCGGGACC | 0.121 |

Block 3 — technique: RNA Bind-n-Seq; form: RNA; matrix: in vitro; concentration: 1 µM; setting: whole 134-nt RNA, ends assumed; added: 150 mM KCl; relative to: input library; direction: higher = stronger binding
Target: Ras GTPase-activating protein-binding protein 1, C-terminal RGG region (G3BP1, Homo sapiens, UniProt Q13283)
UniProt Q13283, sequence (whole entry, looked up): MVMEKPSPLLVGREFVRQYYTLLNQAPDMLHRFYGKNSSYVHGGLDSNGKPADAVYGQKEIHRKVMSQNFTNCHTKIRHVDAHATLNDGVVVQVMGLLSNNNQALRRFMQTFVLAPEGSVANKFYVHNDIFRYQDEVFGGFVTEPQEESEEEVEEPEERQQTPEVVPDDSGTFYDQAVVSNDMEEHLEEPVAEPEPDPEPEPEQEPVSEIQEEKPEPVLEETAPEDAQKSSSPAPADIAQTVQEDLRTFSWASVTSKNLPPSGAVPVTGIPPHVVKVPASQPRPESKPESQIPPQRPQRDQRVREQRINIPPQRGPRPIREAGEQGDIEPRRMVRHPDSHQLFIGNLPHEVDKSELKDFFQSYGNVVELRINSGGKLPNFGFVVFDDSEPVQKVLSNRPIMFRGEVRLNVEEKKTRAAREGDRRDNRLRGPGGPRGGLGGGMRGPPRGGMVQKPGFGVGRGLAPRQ
| Oligonucleotide | log2 enrichment |
| --- | --- |
| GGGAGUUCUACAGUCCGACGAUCUGAAAAUGCUUUCAUGUUAAUUGUGUACACACAUUUCAUCUGUAUCCCUGUUUCUUUUCUCCCUACAGAAACAUAUGAGGAUUUUGAUACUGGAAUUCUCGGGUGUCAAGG | -0.501 |
| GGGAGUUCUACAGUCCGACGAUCAAGUCCUGUGCUACACAUCGUAUGUACCGAAUCGGGUUUGGGUUUUUUUGGGUGGGAAAGUAUUAUGUUACGCCGUUCGGAUCUGCACUUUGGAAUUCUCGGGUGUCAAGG | 0.678 |
| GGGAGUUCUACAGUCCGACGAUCUGGCCCUGGUGGCAUGCGGGGAGGAAGAAGUGGCCUCAUGGAUCGUGGUGGUCCCGGUGGAAUGUUCAGAGGUGGCCGUGGUGGAGACAGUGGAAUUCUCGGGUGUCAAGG | 1.87 |
| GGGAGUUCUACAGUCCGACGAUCAGUCCUGUGCUACACAUCGUAUGUACCGAAUCGGCCCCCGGGCCCCCGGGGCCCCCGGAAAGUAUUAUGUUACGCCGUUCGGAUCUGCACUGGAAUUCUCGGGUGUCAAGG | -2.01 |
| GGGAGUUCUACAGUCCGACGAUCUACCUUUAGAGGAGGAUCUGAUGGAUAUGGCAGUGGACGUGGAUUUGGGGAUGGCUAUAAUGGGUAUGGAGGAGGACCUGGAGGUGGCAAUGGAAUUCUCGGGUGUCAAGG | -1.62 |

Further values, each from its own experiment
| Substance | target | test | test system | setting | how to read | endpoint | value |
| --- | --- | --- | --- | --- | --- | --- | --- |
| PhoQ, residues 284 288 289 292 302 303 MLMVEA | PhoP, residues 12 14 15 18 19 SEGLL (Escherichia coli, UniProt P23836) | Sort-seq, item: YFP reporter | E. coli | PhoQ-PhoP variant library, added: 10 µM Mg2+ | relative to: high Mg2+ state, higher = stronger signaling | fold induction | 18.5 |

For quick reference, copied from above (block 3):
| Oligonucleotide | log2 enrichment |
| --- | --- |
| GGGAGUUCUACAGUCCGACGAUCUGGCCCUGGUGGCAUGCGGGGAGGAAGAAGUGGCCUCAUGGAUCGUGGUGGUCCCGGUGGAAUGUUCAGAGGUGGCCGUGGUGGAGACAGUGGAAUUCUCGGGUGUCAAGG | 1.87 |
| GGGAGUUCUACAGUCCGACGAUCAAGUCCUGUGCUACACAUCGUAUGUACCGAAUCGGGUUUGGGUUUUUUUGGGUGGGAAAGUAUUAUGUUACGCCGUUCGGAUCUGCACUUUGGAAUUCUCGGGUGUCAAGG | 0.678 |
| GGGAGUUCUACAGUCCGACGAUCUACCUUUAGAGGAGGAUCUGAUGGAUAUGGCAGUGGACGUGGAUUUGGGGAUGGCUAUAAUGGGUAUGGAGGAGGACCUGGAGGUGGCAAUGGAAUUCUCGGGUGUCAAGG | -1.62 |
